Published values pooled from the literature.
Lines come from different studies, so protocols differ. Numbers after ± are the reported error.

SMILES	method	medium	time	pH	temperature	notes	kinetic solubility
O=C(O)c1ccc(-n2cccc2/C=C2/NC(=O)N(c3cccc(Cl)c3)C2=O)cc1	–	PBS	24 h	pH 7.4	21 °C	2.0% DMSO	83.7 µM
Cc1ncc(Cl)cc1NCc1ccc(C(=O)N[C@@H](CC2CCCC2)C(=O)NC2CC2)s1	–	PBS with 1% DMSO	18 h	pH 7.4	–	–	6.9 µM
Cc1ccc(-c2nc3ccccc3s2)cc1NC(=O)c1cc([N+](=O)[O-])c(NCCN)cc1Cl	–	phosphate buffer	–	pH 7.4	–	–	< 1.6 µM
CC1(C(F)(F)F)NC(=O)N(c2ccc(F)c(C(F)(F)F)c2)C1=O (stereo not drawn)	–	–	–	–	–	–	≤ 50 µg/mL
O=C(N1CCCCC1)C12CC(c3ccccc3)(C1)C2	–	PBS with DMSO	2 h	pH 7.4	25 °C	–	261 µM
COc1ccc(/C=N\NC(=O)c2cc(O)c(O)c(O)c2)cc1COc1ccc(C(=O)OCC(C)C)cc1	–	PBS	24 h	pH 7.4	21 °C	2.0% DMSO	7.5 µM
CCCCC/C=C\C/C=C\CCCCCCCC(=O)O.Cc1cc(/C=C/C#N)cc(C)c1Nc1ccnc(Nc2ccc(C#N)cc2)n1	–	Peceol	–	–	–	–	< 50000 µg/mL
CCN(CC)CCNC(=O)c1cc(S(C)(=O)=O)ccc1OC	–	PBS	2 h	pH 7.4	25 °C	2% DMSO	394 µM
Cc1ccc(-c2nc3ccccc3s2)cc1NC(=O)c1cc([N+](=O)[O-])c(N2CCNCC2)cc1Cl	–	phosphate buffer	–	pH 7.4	–	–	< 1.6 µM
CCc1ccccc1-c1c(C)[nH]c2cc(OC)c(Cl)cc2c1=O	–	–	–	pH 7.4	–	–	2 to 6 µM
CN1CCN(c2nc(-c3ccccn3)nc3ccccc23)CC1	–	Japanese Pharmacopoeia disintegration test solution 2	–	pH 6.8	–	–	82 µg/mL
Cc1ccc(-c2nc3ccccc3s2)cc1NC(=O)c1cc([N+](=O)[O-])c(N(C)CCN(C)C)cc1Cl	–	phosphate buffer	–	pH 7.4	–	–	< 1.6 µM
CCOc1cc(-c2c(C)[nH]c3cc(OC)c(Cl)cc3c2=O)ccc1F	–	–	–	pH 7.4	–	–	< 2 µM
Cc1ccc(-c2nc3ccccc3s2)cc1NC(=O)c1cc([N+](=O)[O-])c(NCCNC(=O)OC(C)(C)C)cc1Cl	–	phosphate buffer	–	pH 7.4	–	–	< 1.56 µM
Clc1ccc2nc(-c3ccccn3)c(Nc3ccc4c(c3)OCCO4)n2c1	shake flask HPLC-UV	sodium phosphate buffer	24 h	pH 7.4	–	2% DMSO	0.38 µg/mL
CCOC(=O)C(CCCSC)NC(=O)c1ccc(C2CC2)c(Cc2ccc(F)cc2)n1 (stereo not drawn)	–	aqueous buffer with DMSO	–	–	–	–	1.4 µg/mL
Cc1ccc(CCC(=O)Nc2nnc(S(N)(=O)=O)s2)cc1	–	PBS	–	pH 7.4	–	–	60.2 µM
Cc1ccc2nc(-c3ccccn3)c(Nc3ccc4c(c3)OCCO4)n2c1	shake flask HPLC-UV	sodium phosphate buffer	24 h	pH 7.4	–	2% DMSO	8.35 µg/mL
CCC(=O)NS(=O)(=O)c1ccc(-c2c(-c3ccccc3)noc2C)cc1	–	aqueous buffer	90 min	pH 7.4	25 °C	0.1% DMSO	≥ 100 µM
c1ccc(-c2nc(Nc3ccn4nccc4c3)c3ccccc3n2)nc1	–	Japanese Pharmacopoeia disintegration test solution 2	–	pH 6.8	–	–	2 µg/mL
COc1cc2[nH]c(C)c(-c3ccc(-c4ccccc4)cc3)c(=O)c2cc1Cl	–	–	–	pH 7.4	–	–	< 2 µM
O=C(Nc1cncc(-c2nc3ccccc3o2)c1)c1cc([N+](=O)[O-])c(F)cc1F	–	phosphate buffer	–	pH 7.4	–	–	< 0.3 µM
c1ccc(-c2nc(N3CCC(c4ccccn4)C3)c3ccccc3n2)nc1 (stereo not drawn)	–	Japanese Pharmacopoeia disintegration test solution 2	–	pH 6.8	–	–	88 µg/mL
COc1cc2[nH]c(C)c(-c3ccc(S(=O)(=O)N(C)C)cc3)c(=O)c2cc1Cl	–	–	–	pH 7.4	–	–	< 2 µM
NC(=O)C1CCN(c2nc(-c3ccccn3)nc3ccccc23)C1 (stereo not drawn)	–	Japanese Pharmacopoeia disintegration test solution 2	–	pH 6.8	–	–	86 µg/mL
COc1cc2[nH]c(C)c(-c3ccc(C)cc3)c(=O)c2cc1Cl	–	–	–	pH 7.4	–	–	< 2 µM

SMILES	method	medium	time	pH	temperature	notes	kinetic solubility
O=C(Nc1cccc(-c2nccs2)c1)c1cc([N+](=O)[O-])c(F)cc1F	–	phosphate buffer	–	pH 7.4	–	–	2.1 ± 0.1 µM
Fc1ccccc1Nc1nc(-c2ccccn2)nc2ccccc12	–	Japanese Pharmacopoeia disintegration test solution 2	–	pH 6.8	–	–	7 µg/mL
CS(=O)(=O)c1cnc(NS(=O)(=O)c2ccc(N)cc2)nc1.Cl	–	PBS	2 h	pH 7.4	25 °C	–	387 µM
COc1cc2[nH]c(C)c(-c3ccncc3)c(=O)c2cc1Cl	–	–	–	pH 7.4	–	–	6 to 12 µM
COc1cnc(NS(=O)(=O)c2ccc(N)cc2)nc1	–	PBS	2 h	pH 7.4	25 °C	2% DMSO	361 µM
COC(=O)c1cn(C)c2ccc(-c3cccnc3)cc12	–	aqueous buffer	90 min	pH 7.4	25 °C	0.1% DMSO	≥ 100 µM
Oc1c(Br)cc(Br)cc1/C=N/NC(=S)N[C@H]1CC2C=CC1C2 (stereo partly drawn)	–	PBS	24 h	pH 7.4	21 °C	2.0% DMSO	< 0.7 µM
Cc1cccc(N2CCN(c3nc(-c4ccccn4)nc4ccccc34)CC2)n1	–	Japanese Pharmacopoeia disintegration test solution 2	–	pH 6.8	–	–	31 µg/mL
Cc1cccc(NC2=NC(=O)/C(=C/C=C/c3ccco3)S2)c1C	–	PBS	24 h	pH 7.4	21 °C	2.0% DMSO	39.8 µM
CN1C(C(=O)Nc2ccccn2)=C(O)c2sc(Cl)cc2S1(=O)=O	–	aqueous buffer	90 min	pH 7.4	25 °C	0.1% DMSO	≥ 100 µM
COc1c(-c2ccc3cc(NS(C)(=O)=O)ccc3c2)cc(-n2ccc(=O)[nH]c2=O)cc1C(C)(C)C	chemiluminescent nitrogen detection	water	–	pH 7.2	23 °C	–	-5.1 log S
C=C(NC(=O)c1csc(-c2nc3c(cc2O)-c2nc(cs2)C(=O)N[C@@H]([C@@H](C)O)C(=O)N/C(=C\C)c2nc(cs2)C(=O)N[C@H]2C[C@H](O)C(=O)OCc4cccc5[nH]c(c(C)c45)C(=O)SC[C@H](NC(=O)c4csc2n4)c2nc-3cs2)n1)C(N)=O	HPLC	citrate buffer	–	pH 6.0	–	5% DMSO	0.0283 µg/mL
COc1cc2[nH]c(C)c(-c3cncnc3)c(=O)c2cc1Cl	–	–	–	pH 7.4	–	–	≥ 20 µM
Cc1ccn2c(Nc3ccc(F)cc3)c(-c3ccccn3)nc2c1	shake flask HPLC-UV	sodium phosphate buffer	24 h	pH 2.0	–	2% DMSO	72.9 µg/mL
COc1cccc(-c2ccc(NC(=O)C3=C(C(=O)O)CCC3)c(F)c2)c1	–	aqueous buffer	90 min	pH 7.4	25 °C	0.1% DMSO	91.8 ± 9.6 µM
CCn1ncc2c(N3CCC(c4ccccn4)C3)nc(-c3ccccn3)nc21 (stereo not drawn)	–	Japanese Pharmacopoeia disintegration test solution 2	–	pH 6.8	–	–	76 µg/mL
Clc1ccc(COc2cncc(-c3cnn(C4CCNCC4)c3)c2)c(Cl)c1	–	phosphate buffer	–	pH 7.4	–	last soluble concentration	41 µM
Cc1ccc(-c2nc3ccccc3o2)cc1NC(=O)c1cc([N+](=O)[O-])c(F)cc1Cl	–	phosphate buffer	–	pH 7.4	–	–	< 1.6 µM
COc1cc2[nH]c(C)c(-c3ccc(COc4ccccc4)cc3)c(=O)c2cc1Cl	–	–	–	pH 7.4	–	–	2 to 6 µM
Cc1[nH]c(C)c(S(=O)(=O)Nc2ccc(C(F)(F)F)c(Cl)c2Cl)c1C(=O)N1CCC(F)(F)C1	–	–	–	–	–	–	56 µM
Cn1cc(-c2nc(N3CCC(c4ccccn4)C3)c3ccccc3n2)cn1 (stereo not drawn)	–	Japanese Pharmacopoeia disintegration test solution 2	–	pH 6.8	–	–	79 µg/mL
CCCCCCCC(=O)c1c(O)cc(O)cc1CC(=O)OCC	–	aqueous buffer	90 min	pH 7.4	25 °C	0.1% DMSO	≥ 100 µM
CCN(CC)CCNC(=O)c1cc(S(C)(=O)=O)cnc1OC	–	PBS	2 h	pH 7.4	25 °C	2% DMSO	393 µM
Clc1ccc(C(c2c[nH]c3ccccc23)c2c[nH]c3ccccc23)cc1	–	aqueous buffer	90 min	pH 7.4	25 °C	0.1% DMSO	15.2 ± 0.5 µM
O=C(c1ccc(Nc2nccc(-c3cc4ccccc4s3)n2)cc1)N1CCC(N2CCCC2)CC1	–	PBS	–	pH 7.4	–	–	30 µg/mL

Excerpt of the above:
SMILES	method	medium	time	pH	temperature	notes	kinetic solubility
O=C(Nc1cncc(-c2nc3ccccc3o2)c1)c1cc([N+](=O)[O-])c(F)cc1F	–	phosphate buffer	–	pH 7.4	–	–	< 0.3 µM
c1ccc(-c2nc(N3CCC(c4ccccn4)C3)c3ccccc3n2)nc1 (stereo not drawn)	–	Japanese Pharmacopoeia disintegration test solution 2	–	pH 6.8	–	–	88 µg/mL
COc1cc2[nH]c(C)c(-c3ccc(S(=O)(=O)N(C)C)cc3)c(=O)c2cc1Cl	–	–	–	pH 7.4	–	–	< 2 µM
NC(=O)C1CCN(c2nc(-c3ccccn3)nc3ccccc23)C1 (stereo not drawn)	–	Japanese Pharmacopoeia disintegration test solution 2	–	pH 6.8	–	–	86 µg/mL
COc1cc2[nH]c(C)c(-c3ccc(C)cc3)c(=O)c2cc1Cl	–	–	–	pH 7.4	–	–	< 2 µM
O=C(Nc1cccc(-c2nccs2)c1)c1cc([N+](=O)[O-])c(F)cc1F	–	phosphate buffer	–	pH 7.4	–	–	2.1 ± 0.1 µM
Fc1ccccc1Nc1nc(-c2ccccn2)nc2ccccc12	–	Japanese Pharmacopoeia disintegration test solution 2	–	pH 6.8	–	–	7 µg/mL
CS(=O)(=O)c1cnc(NS(=O)(=O)c2ccc(N)cc2)nc1.Cl	–	PBS	2 h	pH 7.4	25 °C	–	387 µM
